Measured values pooled from the literature.
Parts stem from different laboratories: compare values within a part only.
Sequence of UniProt Q00534 (whole entry, looked up): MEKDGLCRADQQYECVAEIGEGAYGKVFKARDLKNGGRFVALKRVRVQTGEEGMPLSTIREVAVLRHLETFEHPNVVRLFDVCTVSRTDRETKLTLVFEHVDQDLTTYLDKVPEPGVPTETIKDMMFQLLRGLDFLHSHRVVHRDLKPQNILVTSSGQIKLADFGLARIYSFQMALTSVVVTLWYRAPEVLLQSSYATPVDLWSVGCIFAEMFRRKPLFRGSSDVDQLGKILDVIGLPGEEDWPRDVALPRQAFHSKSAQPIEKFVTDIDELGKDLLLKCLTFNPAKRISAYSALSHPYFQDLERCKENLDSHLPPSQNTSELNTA

Set 1 — technique: RNA Bind-n-Seq; molecule type: RNA; medium: in vitro; tested at: 200 nM; setting: whole 134-nt RNA, ends assumed; together with: 150 mM LiCl; reference: input library; direction: higher = stronger binding; library: 7-deaza-guanosine replaces G
Target: Ras GTPase-activating protein-binding protein 1, full length (G3BP1, Homo sapiens, UniProt Q13283)
Sequence of UniProt Q13283 (whole entry, looked up): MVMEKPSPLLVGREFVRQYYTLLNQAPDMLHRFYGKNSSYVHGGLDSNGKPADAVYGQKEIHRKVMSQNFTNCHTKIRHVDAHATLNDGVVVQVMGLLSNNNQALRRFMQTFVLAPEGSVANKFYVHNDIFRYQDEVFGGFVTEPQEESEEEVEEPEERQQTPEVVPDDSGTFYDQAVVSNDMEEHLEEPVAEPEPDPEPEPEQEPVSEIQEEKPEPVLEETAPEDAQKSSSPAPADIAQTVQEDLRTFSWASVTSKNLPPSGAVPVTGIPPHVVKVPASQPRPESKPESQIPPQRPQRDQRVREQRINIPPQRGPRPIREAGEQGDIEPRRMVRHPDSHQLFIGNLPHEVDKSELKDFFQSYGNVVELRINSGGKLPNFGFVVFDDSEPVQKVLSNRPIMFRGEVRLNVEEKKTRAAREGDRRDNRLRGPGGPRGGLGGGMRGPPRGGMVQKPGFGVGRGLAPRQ
All sequences stand within: GGGAGUUCUACAGUCCGACGAUC … UGGAAUUCUCGGGUGUCAAGG
Oligonucleotide	log2 enrichment
UCAAGUCCUGUGCUACACAUCGUAUGUACCGAAUCGGGAAAGGGGAAAGGAAAGGAAAGUAUUAUGUUACGCCGUUCGGAUCUGCACUUC	-1.24
GUCCUGUGCUACACAUCGUAUGUACCGAAUCGGGUUUUUUGGUUUUUUGGUUUUUUGGAAAGUAUUAUGUUACGCCGUUCGGAUCUGCAC	-1.18
AGUCCUGUGCUACACAUCGUAUGUACCGAAUCGGGGCCCCGGGGCCCCGGCCCCGGGGAAAGUAUUAUGUUACGCCGUUCGGAUCUGCAC	-1.08
UCCUGUGCUACACAUCGUAUGUACCGAAUCGGGUUUUUGGGGUUUUUGGGGUUUUUGGGGAAAGUAUUAUGUUACGCCGUUCGGAUCUGC	-0.0202
CCUGUGCUACACAUCGUAUGUACCGAAUCGGGUUUUUGGGAAAAAAAGGGUUUUUUUGGGAAAGUAUUAUGUUACGCCGUUCGGAUCUGC	-2.23
AGUCCUGUGCUACACAUCGUAUGUACCGAAUCGGAAAAGGGGAAAAGGGGAAAAGGGGAAAGUAUUAUGUUACGCCGUUCGGAUCUGCAC	0.233
AGUCCUGUGCUACACAUCGUAUGUACCGAAUCAAAUUUAAACCCAAAUUUUUUUAAAAAAGUAUUAUGUUACGCCGUUCGGAUCUGCACU	-1.29
UCCUCAAGUCCUGUGCUACACAUCGUAUGUACCGAAUCGGAGGAGGUUUGGAAAGUAUUAUGUUACGCCGUUCGGAUCUGCACUUCCAGC	-1.73

Set 2 — technique: RNA Bind-n-Seq; molecule type: RNA; medium: in vitro; tested at: not given; setting: RNA with constant flanks, ends assumed; reference: input RNA pool; direction: higher = stronger binding
Target: RING finger protein unkempt homolog, zinc fingers 1-6, GST-SBP tag (UNK, Homo sapiens, UniProt Q9C0B0, residues 30-357)
Sequence of UniProt Q9C0B0 (30-357, looked up): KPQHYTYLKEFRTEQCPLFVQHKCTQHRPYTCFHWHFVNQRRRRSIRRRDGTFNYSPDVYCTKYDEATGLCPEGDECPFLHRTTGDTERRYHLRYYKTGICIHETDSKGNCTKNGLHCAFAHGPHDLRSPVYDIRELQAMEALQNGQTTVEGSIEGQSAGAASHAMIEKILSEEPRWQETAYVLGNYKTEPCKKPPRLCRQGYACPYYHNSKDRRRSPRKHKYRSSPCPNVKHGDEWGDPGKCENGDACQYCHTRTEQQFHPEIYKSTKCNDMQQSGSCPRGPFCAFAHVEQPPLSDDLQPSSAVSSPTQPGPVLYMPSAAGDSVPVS
All sequences stand within: GGGAGUUCUACAGUCCGACGAUC … CAACAGAGGAUUGAGCAUCA
Oligonucleotide	bound/input enrichment
GAUAGAUUGACGUGUAGAGACUGUCAACUUUUGGAGCACAAAGAACAUAGGUAUCAGUUUUCCGAAGAGGCUUUUCAAAAUCAGAAAGGUGCAAUUGAAAAUCUGUUGGCUAAGCUUCUU	0.199 ratio
AAGUCAGCAGCACAAGCCAGACGCCGGCUGAUGAGUGGAAAAGUAAAAGUGUGGGGAAAUGCCGUUACAGUUGAAUGGGCUGACCCUGUGGAAGAACCAGAUCCAGAAGUCAUGGCUAAG	0.225 ratio
AGGAAAAACCAAACUACAAAAAGAUUUAUUUAUAAUAUUCCACCUAAUAAUGAAACGAAUUCCGAAGAUUGCUCAGUAAUGCAGCCACCUGUUGCCUAUCCAGAAGAAAAUACACUACUC	1.96 ratio
UUUCAUCUUGAGGUGGCCAAUAUGGGAUGUGGAAUUUUUACAUGAGUUACACAUGUUUGGCACCGUACUUUUGGUACAUUGUGGCUUCAGAAGGGCCAGUGUUAAAACUGCUUCCAUGUC	0.136 ratio
CGUGAUGAGGAAGUAAGCUCUGCUGAUAUAAGUAGUUCAUCUGAGGUAAUAUCACAGCAUCCCGUAUCUUACAGAAAUAUUGAAGAGCUUCAACAACAAAAUCAACGUCUCUUAGUGGCC	0.229 ratio
UGUUCCACUUUACUUUCCUUCCCGGGAAGUUUGUUUGGCUUUCUUCCAUUGUUGUUUUUGCCGCUUUUACUUCAGAAGUCUGUAUUUCCAUAAGCCAGAGGUUGUAAAGCCACUGAUGUU	0.569 ratio
UUGACAAAAGUACCAUGGAGUUUUAUGAGUCAGCAUAUUUUAUUGUUCUUAUUCCUUCAACCGUUAUUACAGUAAUUUUCCUCUUCUUCUGGCUUUUCAUGAAAGAAACAUUAUAUGAUG	0.341 ratio
AUAACUACUCCUGCCAUGGCCGUCAGCCAUAUCAUGUUGGAAUCAUAUAAAAAGUAUAUUCCCGUGUCUUUGAUAUUACUUGGCAAAGUACAACAGCUGCCUAAAUACACCUCUCAAAUA	0.197 ratio

Set 3 — technique: RNA Bind-n-Seq; molecule type: RNA; medium: in vitro; tested at: 20 nM; setting: 6-mer, flanks averaged, single round; together with: 150 mM LiCl; reference: input library; direction: higher = stronger binding
Target: TAR DNA-binding protein 43, full length, His tag (TARDBP, Homo sapiens, UniProt Q13148, residues 1-414)
Oligonucleotide	6-mer enrichment (R)
AAGGGG	1.22
UCGCCG	0.868
GGCUCA	0.89
GUCUCG	0.915
AAAUAA	1.03

Other studies, line by line
SMILES	target	read-out	mode	tested at	reference	measurement	result
CN(C)S(=O)(=O)c1ccc2c(c1)/C(=C/c1cc3c([nH]1)CCCC3)C(=O)N2	Cyclin-dependent kinase 6, with cyclin D3 (CDK6, Homo sapiens, UniProt Q00534)	enzyme activity	inhibitor	0.5 µM	control	remaining activity	84.2%

Excerpt of the above (set 1):
Oligonucleotide	log2 enrichment
UCCUGUGCUACACAUCGUAUGUACCGAAUCGGGUUUUUGGGGUUUUUGGGGUUUUUGGGGAAAGUAUUAUGUUACGCCGUUCGGAUCUGC	-0.0202
AGUCCUGUGCUACACAUCGUAUGUACCGAAUCAAAUUUAAACCCAAAUUUUUUUAAAAAAGUAUUAUGUUACGCCGUUCGGAUCUGCACU	-1.29
UCCUCAAGUCCUGUGCUACACAUCGUAUGUACCGAAUCGGAGGAGGUUUGGAAAGUAUUAUGUUACGCCGUUCGGAUCUGCACUUCCAGC	-1.73
